Measurements from different studies.
A part holds a random share of what one study measured. Positions count from the first letter of the parent shown.

Series 1 — method: universal PBM; molecule type: double-stranded DNA, one strand shown; medium: in vitro; concentration: not given; reading: higher = stronger binding
Target: Sal-like protein 4, full length isoform B (SALL4, Homo sapiens, UniProt Q9UJQ4-2, residues 1-616)
Setting: 8-mer, flanks averaged, mean of replicates
Target sequence (chain): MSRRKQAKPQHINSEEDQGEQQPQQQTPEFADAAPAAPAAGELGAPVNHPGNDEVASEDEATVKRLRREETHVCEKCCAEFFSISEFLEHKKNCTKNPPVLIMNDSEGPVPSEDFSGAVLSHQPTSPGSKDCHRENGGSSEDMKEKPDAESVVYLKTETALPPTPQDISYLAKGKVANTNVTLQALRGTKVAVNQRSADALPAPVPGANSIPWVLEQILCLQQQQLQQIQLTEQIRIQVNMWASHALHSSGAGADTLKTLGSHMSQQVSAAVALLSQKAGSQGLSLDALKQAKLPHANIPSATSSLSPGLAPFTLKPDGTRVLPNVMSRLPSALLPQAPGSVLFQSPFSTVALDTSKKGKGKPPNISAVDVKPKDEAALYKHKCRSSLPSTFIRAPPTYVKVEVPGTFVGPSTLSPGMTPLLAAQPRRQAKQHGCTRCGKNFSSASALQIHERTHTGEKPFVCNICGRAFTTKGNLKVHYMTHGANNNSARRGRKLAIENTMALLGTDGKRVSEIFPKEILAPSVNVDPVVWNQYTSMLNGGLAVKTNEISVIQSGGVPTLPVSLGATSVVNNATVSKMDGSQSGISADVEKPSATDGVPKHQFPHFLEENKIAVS
Sequence	E-score
CAAACCCC	-0.0167
ACAAGTGA	0.0884
CGTCGACA	-0.172
GGCGCCCC	-0.431
ATCTTATA	0.252
ATAAGTCC	0.17
CTAGAACA	0.0669
GATGCTAC	0.0647
CATCGATC	-0.0139
GCTATCCC	-0.0811
ACCGACAT	-0.0232
GGTCTTCA	-0.116
AGGCTGGC	-0.286
ATGATGTC	0.0652
GTCCGGCA	-0.191
CGAGTCCC	-0.136
CCACACAG	-0.0771
CATCGTCG	-0.201

Series 2 — target: CCNA1, cyclin fold, Cln2 fusion (human); method: yeast growth competition, sequencing; medium: yeast; setting: weak parent motif; baseline: not given; reading: higher = stronger binding
Starting sequence: RBL1 docking peptide (human); GSAKRRLFGEDPP
Substitution	normalised enrichment score
K4Q	0.303
G9C	0.854
L7T	0.0439
G1C	0.295
A3V	0.603
S2H	0.574
R5I	0.0777
G9S	0.502
G1P	0.435
E10L	0.585
F8G	0.189
L7G	0.226
F8I	0.0652
E10R	0.465
K4M	0.256

Series 3 — target: UBE2N UBC core domain (UniProt P61088); method: yeast two-hybrid; medium: yeast; setting: mostly zero background; baseline: not given; reading: higher = stronger interaction
B1: UHRF2 RING domain (UniProt Q96PU4); chain CGGDPEKKCHSCSCRVCGGKHEPNMQLLCDECNVAYHIYCLNPPLDKVPEEEYWYCPSCKTDSSEVVKAGER
B2: TRIM8 RING domain (UniProt Q9BZR9); chain WKNCFEEELICPICLHVFVEPVQLPCKHNFCRGCIGEAWAKDSGLVRCPECNQAYNQKPGLE
B3: TRIM72 RING domain (UniProt Q6ZMU5); chain APGLLHQELSCPLCLQLFDAPVTAECGHSFCRACLGRVAGEPAADGTVLCPCCQAPTRPQALST
B4: RNF170 RING domain (UniProt Q96K19); chain TRQQFYTDMYCPICLHQASFPVETNCGHLFCGACIIAYWRYGSWLGAISCPICRQTVTLLLTVF
Residues (chain): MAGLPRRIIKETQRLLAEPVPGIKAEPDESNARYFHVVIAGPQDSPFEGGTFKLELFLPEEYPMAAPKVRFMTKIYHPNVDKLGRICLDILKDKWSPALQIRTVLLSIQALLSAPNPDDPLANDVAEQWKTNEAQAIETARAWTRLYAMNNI
Molecule	lacZ reporter activity
QLRRLQEERTCKVCMDKEVSVVFIPCGHLVVCQECAPSLRKCPICRGIIKGTVRTF (BIRC2 RING domain (UniProt Q13490))	0
B1 (UHRF2 RING domain)	0
B2 (TRIM8 RING domain)	0
B3 (TRIM72 RING domain)	0
QLQDIKEQTMCPVCLDRLKNMIFLCGHGTCQLCGDRMSECPICRKAIERRILLY (MIB1 RING domain (UniProt Q86YT6))	2160
B4 (RNF170 RING domain)	0

Series 4 — method: RNA Bind-n-Seq; molecule type: RNA; medium: in vitro; concentration: not given; baseline: input RNA pool; reading: higher = stronger binding
Target: RING finger protein unkempt homolog, zinc fingers 1-6, GST-SBP tag (UNK, Homo sapiens, UniProt Q9C0B0, residues 30-357)
Setting: RNA with constant flanks, human-mouse chimeric sites, ends assumed
Construct (chain): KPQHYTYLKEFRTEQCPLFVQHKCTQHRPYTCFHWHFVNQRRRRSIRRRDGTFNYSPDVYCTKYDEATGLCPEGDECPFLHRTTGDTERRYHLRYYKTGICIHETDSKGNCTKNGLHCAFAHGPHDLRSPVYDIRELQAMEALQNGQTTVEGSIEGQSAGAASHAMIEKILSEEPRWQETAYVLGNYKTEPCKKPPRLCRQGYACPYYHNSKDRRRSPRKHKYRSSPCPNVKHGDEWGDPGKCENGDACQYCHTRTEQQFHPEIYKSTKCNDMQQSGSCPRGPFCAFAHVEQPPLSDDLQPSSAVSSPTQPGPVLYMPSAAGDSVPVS
Sequence	bound/input enrichment
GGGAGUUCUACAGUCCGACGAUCAAUUUCCUGUCAUACUUUUUAGACAUUCACAUCAGACGCCUUACUACCCUGGCCACAUUCUAGGUUUGUGUUAUUUCUAAGCCUUUUAUAUGAUCAAAUGAGAACACUGCUUAACUAAUGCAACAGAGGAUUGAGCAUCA	0.475 ratio
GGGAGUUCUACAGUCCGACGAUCGAUCCACAGUGGUCUGAGGAGCAACUCAUUGCUGCAAAAUUUUGCUUUGCUGGCCUUGUUAUAGGGCAGACUGAAGUGGACAUCAUGAGUCAUGCUACACAAGCUAUUUUUGAAAUUCUGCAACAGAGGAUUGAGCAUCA	0.129 ratio
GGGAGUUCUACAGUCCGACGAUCGCUCCUCCCCGCUCUGCAGCCUGGGGACACUGGGCUGGGACCAGAAUCUUAUUUUUUUUUAAAACUCUCAGUGUAACUGUAUCCCGUGACAUUUCAUUUUUUUUUUAUAGUGUAUUUUUUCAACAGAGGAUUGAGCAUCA	42.6 ratio
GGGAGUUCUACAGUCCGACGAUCCUGAAAAACACAGAUAUCAAAGUUGUUGACUUUGGAAGUGCAACGUAUGAUGAUGAACAUCAUAGUACUUUGGUGUCUACCCGGCACUACAGAGCUCCAGAGGUCAUUUUGGCUUUAGGUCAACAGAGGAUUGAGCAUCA	0.35 ratio
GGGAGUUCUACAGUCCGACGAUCGUGCCCUUCUCGCUGCUGCGGAGCCCGAGCUGGGAACACCCCUUCCGCUGGUACCCUGCACACAGCCGCCUCUUCGAUCAAGCUUUCGGGGUGCCCCGGUUGCCCGAUGAGUGGUCGCAGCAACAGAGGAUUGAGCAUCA	0.0617 ratio
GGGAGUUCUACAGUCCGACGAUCAGGAGGAGGUUAAAGGGUGAGAGUGGGGUGGAAGACUGUGUCAUGGCUCUGGAGACACUGUUCAGUGUUCUGCUUUCUCUUUGCAGACUGAUGGCCCCUUACACGCCCUUUCUGACUGAGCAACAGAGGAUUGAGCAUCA	0.0831 ratio

Series 5 — method: DHFR PCA, deep sequencing; medium: yeast; added: (+)-ABA 0 µM; baseline: wild-type fitted maximum; reading: higher = stronger binding
Target: ABI1, truncated, D143A, DHFR fusion (Arabidopsis thaliana)
Setting: methotrexate growth selection, single substitutions
Starting sequence: PYL1, truncated, DHFR fusion (Arabidopsis thaliana); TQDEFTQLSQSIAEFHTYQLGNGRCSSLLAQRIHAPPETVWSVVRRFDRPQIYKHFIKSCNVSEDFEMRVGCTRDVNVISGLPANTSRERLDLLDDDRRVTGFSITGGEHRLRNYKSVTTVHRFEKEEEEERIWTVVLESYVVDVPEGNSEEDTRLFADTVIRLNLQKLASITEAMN; partner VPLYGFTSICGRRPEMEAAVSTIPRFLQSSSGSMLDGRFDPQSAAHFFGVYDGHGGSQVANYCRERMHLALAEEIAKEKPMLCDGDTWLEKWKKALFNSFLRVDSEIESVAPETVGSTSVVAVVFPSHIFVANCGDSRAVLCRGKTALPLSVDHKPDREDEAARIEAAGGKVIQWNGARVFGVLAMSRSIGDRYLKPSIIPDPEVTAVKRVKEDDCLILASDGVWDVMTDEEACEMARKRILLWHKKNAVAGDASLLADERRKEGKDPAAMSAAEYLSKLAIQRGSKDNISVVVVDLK
Substitution	relative binding score [%]
H110V	14
Q10K	30.2
H16A	-0.719
I172Q	-8.12
L93S	-1.79
T101V	35.1
V143K	-1.88
V100G	-1.26
F5K	1.92

Series 6 — method: protein binding microarray; molecule type: double-stranded DNA, one strand shown; medium: in vitro; concentration: not given; baseline: not given; reading: higher = stronger binding
Target: Histone acetyltransferase KAT6A, winged helix 1, GST fusion (KAT6A, Homo sapiens, UniProt Q92794, residues 1-85)
Setting: 8-mer, flanks averaged, mean of 2 arrays, mostly near background
Residues (chain): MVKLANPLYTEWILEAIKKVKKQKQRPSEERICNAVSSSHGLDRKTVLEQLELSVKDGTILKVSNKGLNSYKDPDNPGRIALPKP
Sequence	E-score
ATTATGTC	-0.0835
GATTATGC	-0.0945
AGATTTAA	-0.052
TACTACCA	-0.135
CTTCGACA	-0.159
ATGTACAC	-0.125
ATTTATCA	-0.0513
GAGATGAC	-0.0801
AGCGGCCG	0.454
AGTCGATG	-0.226
CCCGACTA	0.159
CATCAACC	0.0414
GGCCACCA	-0.0222
ACACCGGG	0.321
CCAAGTGA	-0.165
GCGTCAAA	0.0247

Series 7 — method: protein-binding microarray; molecule type: double-stranded DNA, one strand shown; medium: in vitro; concentration: 2540 nM top; setting: 60-bp whole probe; added: salmon DNA 0.4 mg/ml; baseline: random background probes; reading: higher = stronger binding; constant ends, left off below: GCCTAGCAC … GTCTTGATTCGCTTGACGCTGCTG
Target: Interferon regulatory factor 3, full length, phosphomimetic (IRF3, Homo sapiens, UniProt Q14653, residues 1-427, S386D/S396D/S398D/S402D/T404D/S405D)
Target sequence (chain): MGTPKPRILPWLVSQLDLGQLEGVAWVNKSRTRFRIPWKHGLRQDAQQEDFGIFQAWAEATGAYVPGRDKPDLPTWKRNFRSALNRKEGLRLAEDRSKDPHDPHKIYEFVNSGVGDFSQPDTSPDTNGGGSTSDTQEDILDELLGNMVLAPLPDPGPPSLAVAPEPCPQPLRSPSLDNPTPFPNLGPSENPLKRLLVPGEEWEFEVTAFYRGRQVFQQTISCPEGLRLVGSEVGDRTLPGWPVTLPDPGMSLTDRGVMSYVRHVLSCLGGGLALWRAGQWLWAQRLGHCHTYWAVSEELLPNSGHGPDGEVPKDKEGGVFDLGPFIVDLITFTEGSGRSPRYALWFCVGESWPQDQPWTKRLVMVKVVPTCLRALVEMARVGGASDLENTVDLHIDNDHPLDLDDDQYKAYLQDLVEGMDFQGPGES
Sequence	fitted relative affinity [z-score]
TTAGATCTCAGACTGGAGTAGTGCTAG	-0.198
TTAGGTCTCGGACTGGGTTCGTGCTAG	-0.381
TTAGGACTGGTGTTTCGGTTAGTGCTA	2.22
GACGGTATCGACTAACGGGACGTGCTA	0.354
TTAGATCTCAGTTTGGATTAGTGCTAG	0.44
CTCAAAGTCTTTTATGGTATTGTGCTA	-0.23
TTAGAACTGAGATTGGATTAGTGCTAG	-0.317
TCATTTCCCACTTTCAGACTGTGCTAG	3.43
TTAGGTATCGGGCTCGGTTAGTGCTAG	0.68
TTAGAACTGGGGTTTTGATTAGTGCTA	-0.51
GACGGTATCGATATCGGGACGTGCTAG	2.73

A few entries again (series 4):
Sequence	bound/input enrichment
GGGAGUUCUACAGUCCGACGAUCAAUUUCCUGUCAUACUUUUUAGACAUUCACAUCAGACGCCUUACUACCCUGGCCACAUUCUAGGUUUGUGUUAUUUCUAAGCCUUUUAUAUGAUCAAAUGAGAACACUGCUUAACUAAUGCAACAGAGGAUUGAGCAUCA	0.475 ratio
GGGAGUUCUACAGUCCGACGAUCGAUCCACAGUGGUCUGAGGAGCAACUCAUUGCUGCAAAAUUUUGCUUUGCUGGCCUUGUUAUAGGGCAGACUGAAGUGGACAUCAUGAGUCAUGCUACACAAGCUAUUUUUGAAAUUCUGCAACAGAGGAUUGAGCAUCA	0.129 ratio
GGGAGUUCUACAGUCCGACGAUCGCUCCUCCCCGCUCUGCAGCCUGGGGACACUGGGCUGGGACCAGAAUCUUAUUUUUUUUUAAAACUCUCAGUGUAACUGUAUCCCGUGACAUUUCAUUUUUUUUUUAUAGUGUAUUUUUUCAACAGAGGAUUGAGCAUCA	42.6 ratio
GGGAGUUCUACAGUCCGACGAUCCUGAAAAACACAGAUAUCAAAGUUGUUGACUUUGGAAGUGCAACGUAUGAUGAUGAACAUCAUAGUACUUUGGUGUCUACCCGGCACUACAGAGCUCCAGAGGUCAUUUUGGCUUUAGGUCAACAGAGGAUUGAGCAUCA	0.35 ratio
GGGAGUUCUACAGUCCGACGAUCGUGCCCUUCUCGCUGCUGCGGAGCCCGAGCUGGGAACACCCCUUCCGCUGGUACCCUGCACACAGCCGCCUCUUCGAUCAAGCUUUCGGGGUGCCCCGGUUGCCCGAUGAGUGGUCGCAGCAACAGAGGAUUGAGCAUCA	0.0617 ratio
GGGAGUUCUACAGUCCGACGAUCAGGAGGAGGUUAAAGGGUGAGAGUGGGGUGGAAGACUGUGUCAUGGCUCUGGAGACACUGUUCAGUGUUCUGCUUUCUCUUUGCAGACUGAUGGCCCCUUACACGCCCUUUCUGACUGAGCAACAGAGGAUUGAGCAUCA	0.0831 ratio
